{"data": "Earlier results that unrelated publications cite", "note": "Numbered parts are unrelated; values within a part may stem from several laboratories. Numbers after ± are the reported error.", "UniProt Q13308, sequence (whole entry, looked up)": "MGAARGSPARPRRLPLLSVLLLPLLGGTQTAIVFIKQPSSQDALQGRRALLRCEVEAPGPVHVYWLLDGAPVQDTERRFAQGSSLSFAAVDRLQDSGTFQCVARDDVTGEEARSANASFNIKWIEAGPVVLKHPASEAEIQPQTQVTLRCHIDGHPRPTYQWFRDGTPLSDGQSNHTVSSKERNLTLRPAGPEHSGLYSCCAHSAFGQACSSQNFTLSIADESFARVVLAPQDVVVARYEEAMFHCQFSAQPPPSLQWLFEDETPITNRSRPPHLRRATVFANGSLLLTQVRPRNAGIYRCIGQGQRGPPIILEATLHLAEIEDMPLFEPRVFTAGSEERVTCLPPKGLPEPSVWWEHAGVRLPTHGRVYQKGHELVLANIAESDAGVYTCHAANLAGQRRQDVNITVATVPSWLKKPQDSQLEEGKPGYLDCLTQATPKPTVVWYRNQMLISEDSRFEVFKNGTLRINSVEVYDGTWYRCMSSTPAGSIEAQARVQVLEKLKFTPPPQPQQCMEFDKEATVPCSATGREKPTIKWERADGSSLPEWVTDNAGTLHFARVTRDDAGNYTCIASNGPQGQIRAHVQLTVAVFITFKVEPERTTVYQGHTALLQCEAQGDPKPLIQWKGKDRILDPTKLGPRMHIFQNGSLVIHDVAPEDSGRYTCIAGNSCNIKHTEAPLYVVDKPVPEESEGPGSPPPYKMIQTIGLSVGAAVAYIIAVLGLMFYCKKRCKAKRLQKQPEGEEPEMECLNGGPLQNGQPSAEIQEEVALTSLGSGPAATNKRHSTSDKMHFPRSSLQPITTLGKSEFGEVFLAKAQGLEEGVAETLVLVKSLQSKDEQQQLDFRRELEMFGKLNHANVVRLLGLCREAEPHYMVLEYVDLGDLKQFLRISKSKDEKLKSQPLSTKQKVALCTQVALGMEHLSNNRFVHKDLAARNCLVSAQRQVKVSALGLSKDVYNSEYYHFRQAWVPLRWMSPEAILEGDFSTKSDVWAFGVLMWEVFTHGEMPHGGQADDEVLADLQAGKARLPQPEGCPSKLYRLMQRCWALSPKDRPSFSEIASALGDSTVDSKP"}
{"data": "Block 1", "organism": "Klebsiella pneumoniae", "molecule type": "peptide"}
{"Sequence": "KWIKIWFIWRRIKWRK", "MIC": "46.9 µg/mL"}
{"Sequence": "RQIKIWFQNKKWKWKK", "MIC": "1000 µg/mL"}
{"Sequence": "RQIKIWFQNRKWKWKK", "MIC": "500 µg/mL"}
{"data": "Mixed results", "Tpm1": "Tropomyosin alpha-1 chain (Tpm1, Rattus norvegicus, UniProt P04692)", "B1": "CCL1; sequence looked up; chain KSMQVPFSRCCFSFAEQEIPLRAILCYRNTSSICSNEGLIFKLKRGKEACALDTVGWVQRHRKMLRHCPSKRK", "UniProt P04692, sequence (whole entry, looked up)": "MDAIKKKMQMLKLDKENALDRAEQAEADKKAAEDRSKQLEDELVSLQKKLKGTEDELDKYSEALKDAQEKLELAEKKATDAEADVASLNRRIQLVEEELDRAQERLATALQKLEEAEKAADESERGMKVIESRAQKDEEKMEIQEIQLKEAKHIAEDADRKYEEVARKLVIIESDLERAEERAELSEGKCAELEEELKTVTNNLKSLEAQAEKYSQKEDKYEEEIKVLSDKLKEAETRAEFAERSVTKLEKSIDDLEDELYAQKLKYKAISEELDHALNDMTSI"}
{"Substance": "pegcetacoplan", "test system": "human", "conditions": "720 mg single dose, arithmetic mean", "endpoint": "AUC(0-inf)", "value": "59000 µg·h/mL"}
{"Substance": "MSYRKELEKYRDLDEDKILGALTEEELRKLENELEELD", "tested on": "Tpm1", "assay": "CD thermal unfolding", "conditions": "30 °C", "endpoint": "Kd", "value": "1000 ± 130 nM"}
{"Substance": "B1 (CCL1)", "tested on": "CCR8 H283A mutant", "assay": "IP accumulation, agonist", "endpoint": "EC50", "value": "12 nM"}
{"Substance": "ATCTAACTGCTGCGCCGCCGGGAAAATACTGTACGGTTAGA (ssDNA)", "tested on": "PTK7 31-1070 (Homo sapiens, UniProt Q13308)", "assay": "flow cytometry", "conditions": "in cells, not purified", "endpoint": "Kd", "value": "0.81 nM"}
{"Substance": "STFGYRRGLSKYESIDEDELLASLSAEELKELERELEDIE (Lmod2(2-41); sequence looked up)", "tested on": "Tpm1", "assay": "CD thermal unfolding", "test system": "peptide", "conditions": "30 °C", "endpoint": "Kd", "value": "370 ± 50 nM"}
{"note": "A few entries again (block 1):"}
{"Sequence": "RQIKIWFQNKKWKWKK", "MIC": "1000 µg/mL"}
